Published values of several laboratories.
Compare with care: the assays were run in different laboratories. Values joined by “and” are separate records of one study, mostly repeats; a detail may differ. ± marks the error that the study gave.

| SMILES | target or system | assay | system | setting | how to read | quantity | result |
| --- | --- | --- | --- | --- | --- | --- | --- |
| CC(C)C[C@@H](C=O)NC(=O)[C@H](CC(C)C)NC(=O)[C@H](CC(C)C)NC(=O)OCc1ccccc1 | Mus musculus | gene silencing, high-content imaging | LDR reporter GFP cells | 30 h, confirmation, mean of two runs |  | Emax | 91% |
| CC(C)C[C@@H](C=O)NC(=O)[C@H](CC(C)C)NC(=O)[C@H](CC(C)C)NC(=O)OCc1ccccc1 |  | item: Ub(G76V)-GFP |  | 0.01 µM |  | degradation rate constant | 0.0273 min⁻¹ |
| C[C@H]1C[C@H]2CSC(N)=N[C@@]2(c2nc(NC(=O)c3ccc(OC(F)F)cn3)cs2)CO1 |  | item: Aβx-40 | healthy adults, plasma | 400 mg single dose, 24 h post-dose | relative to: placebo | percent change from baseline | -67.4% |
| CC(C)NCC(O)c1ccc(O)c(O)c1 (stereo not shown) |  |  | ventricular cardiomyocytes, C57BL/6 mouse | dose not given, 0.036 s |  | sarcomere length | 1.72 µm |
| C[C@H](NC(=O)[C@@H]1CCCN1C(=O)[C@@H]1CCCN1C(=O)[C@@H](O)[C@H](N)Cc1ccccc1)C(N)=O |  | protease activity | HEK-293T cell lysate | 10 µM, with: XP-AMC 500 µM |  | cleavage inhibition | no inhibition |
| O=C(NCCN1CCCC1=O)c1ccc([C@H]2[C@@H](F)[C@@H](F)C[C@@H](F)[C@H]2F)cc1 |  | liver microsome stability | rat liver microsomes | 1 µM |  | hepatic clearance | 14 mL/min/kg |
| C[C@H](Oc1ccc(Br)cc1-c1ccon1)C(=O)O |  | last response peak | human, tibialis anterior muscle | 800 mg, 15 Hz, single ascending dose |  | difference from placebo | -22.9% |
| CCCCCCCCCCCCCCCC(=O)N[C@@H](CCC(=O)NCCCC[C@H](NC(=O)CCOCCOCCOCCOCCNC(=O)CCc1cn(CC(=O)N[C@@H](CCC(=O)NCCCC[C@H](NC(=O)[C@H](C)NC(=O)[C@H](C)NC(=O)[C@H](CCC(N)=O)NC(=O)CNC(=O)[C@H](CCC(=O)O)NC(=O)[C@H](CC(C)C)NC(=O)[C@H](Cc2ccc(O)cc2)NC(=O)[C@H](CO)NC(=O)[C@H](CO)NC(=O)[C@@H](NC(=O)[C@H](CC(=O)O)NC(=O)[C@H](CO)NC(=O)[C@@H](NC(=O)[C@H](Cc2ccccc2)NC(=O)[C@@H](NC(=O)CNC(=O)[C@H](CCC(=O)O)NC(=O)[C@H](C)NC(=O)[C@@H](N)Cc2cnc[nH]2)[C@@H](C)O)[C@@H](C)O)C(C)C)C(=O)N[C@@H](CCC(=O)O)C(=O)N[C@@H](Cc2ccccc2)C(=O)N[C@H](C(=O)N[C@@H](C)C(=O)N[C@@H](Cc2c[nH]c3ccccc23)C(=O)N[C@@H](CC(C)C)C(=O)N[C@H](C(=O)N[C@@H](CCCNC(=N)N)C(=O)NCC(=O)N[C@@H](CCCNC(=N)N)C(=O)NCC(=O)O)C(C)C)[C@@H](C)CC)C(=O)O)nn1)C(=O)NCCOCCOCCOCCOCCC(=O)N[C@@H](CCCCNC(=O)CC[C@H](NC(=O)CCCCCCCCCCCCCCC)C(=O)O)C(=O)OC)C(=O)O |  |  | db/db mouse | subcutaneous, 100 nmol/kg single, 0 to 96 h | relative to: baseline | blood glucose AUC(0-96) | 7800 ± 572% |
| O=C(NCCc1cccnc1)c1ccc(C2CCCCC2)cc1 |  | hepatocyte stability | cryopreserved rat hepatocytes | 1 µM |  | hepatic clearance | 47 mL/min/kg |
| Cc1noc(C)c1-c1cc(C(O)(c2ccccn2)c2ccccn2)c2nc(C3CC3)[nH]c2c1 |  | item: CCR2 expression | human, peripheral blood | 6 mg, day 15, 1604 study, with: enzalutamide |  | maximum inhibition | 42% |
| N#Cc1ccc2c(c1)[C@H]1CCCN(C(=O)c3ccc4[nH]cnc4c3)[C@H]1C2 |  |  | human, Phase II trial | oral, 240 mg once daily, day 28, adjusted mean, SE |  | change, HOMA-beta, from baseline | 0.7% |
| CCCn1cc(C)c2c(=O)[nH]c(-c3cc(S(=O)(=O)N4CCN(CC)CC4)ccc3OCC)nc21 |  |  | supine | concentration not given, 0 to 4 h | relative to: baseline | maximal mean DBP decrease | 7.67 mmHg |
| Cn1cc(Nc2nccc(-c3ccc4c(c3)CN(C3COC3)CC[C@H]4NC(=O)c3cn(C(C)(C)C)nn3)n2)cn1 |  | item: Putrescine Degradation III | splenic B cells, mouse | in vivo, 30 mg/kg, IgD-activated B cells | relative to: vehicle, positive = activation | pathway activation z-score | 1.34 |
| C=CCn1c(=O)c2cnc(Nc3ccc(N4CCN(C)CC4)cc3)nc2n1-c1ccc2c(n1)[C@@](O)(CC)CC2 |  |  | OVCAR-3 xenograft, NOD/SCID mouse | 60 mg/kg once daily |  | tumour growth inhibition | 71.9% |
| O=C(O)CNC(=O)Cc1ccccc1 |  |  | ventricular cardiomyocytes, C57BL/6 mouse | dose not given, 0.456 s |  | sarcomere length | 1.71 µm |
| N#Cc1ccn2c(-c3ccncc3)c(-c3ccc(F)cc3)nc2c1 |  | kinase binding, competitor, MIB/MS competition, item: YPK1 | Candida albicans cell lysate | 100 nM | relative to: DMSO | log2 fold change | -0.146 |
| CC(=O)Oc1cc2c(s1)CCN(C(C(=O)C1CC1)c1ccccc1F)C2 (stereo not shown) |  | platelet aggregation, light transmittance aggregometry | human, platelet-rich plasma | dose not given, 30 min, IPA above 90 %, with: TRAP 15 µM | relative to: patients | patients with IPA above threshold | 0% |
| OC(CCN1CCCCC1)(c1ccccc1)C1CC2C=CC1C2 (stereo not shown) |  | resting-state EEG | healthy elderly humans | oral, 2 mg, eyes open, LS mean |  | EEG Beta2-power Pz-O2 | 0.9 µV² |
| COC(=O)c1cc(O)c(O)c(O)c1 |  | glucuronidation kinetics | Wistar rat liver microsomes | M2 formation |  | substrate inhibition constant | 69.9 ± 64.3 µM |
| Cn1cc([C@H]2C[C@H]3CSC(N)=N[C@@]3(c3ccc(F)cc3F)CO2)cn1 |  |  | wild-type mouse, brain | subcutaneous, 3 mg/kg, 3 h |  | Aβ42 level | 0.64 ng/g |

| SMILES | target or system | assay | system | setting | how to read | quantity | result |
| --- | --- | --- | --- | --- | --- | --- | --- |
| CC1(C)CCC(CN2CCN(c3ccc(C(=O)NS(=O)(=O)c4ccc(NCC5CCOCC5)c([N+](=O)[O-])c4)c(Oc4cnc5[nH]ccc5c4)c3)CC2)=C(c2ccc(Cl)cc2)C1 |  | cell killing | canine lymph node CD21+ B cells, dog 30 | 24 h |  | EC50 | 59 nM |
| NC(=O)c1cnc2[nH]ccc2c1N[C@@H]1[C@@H]2CC3C[C@H]1C[C@@](O)(C3)C2 |  | flow cytometry, item: CD8+ effector T cells | Japanese healthy subjects, peripheral blood | oral, 10 mg twice daily, day 7 |  | change from baseline | 0.28% |
| CCCN1CCCC[C@H]1C(=O)Nc1c(C)cccc1C |  |  | Sprague-Dawley rat, female | sciatic nerve injection, 15 mM |  | sensory block duration | 160 ± 14.9 min |
| N#Cc1ccc(Oc2ccc3c(c2)COB3O)cc1 |  |  | Balb/c mice, oxazolone atopic dermatitis | day 11, unit not given | relative to: vehicle | ear thickness difference | -0.0804 |
| O=C(OC(C(F)(F)F)C(F)(F)F)N1CCN(Cc2cccc(Oc3ccccc3)c2)CC1 |  | PET | rhesus monkey, cerebellum | intravenous, 0.1 mg/kg, pretreatment, with: [18F]T-401 |  | tracer distribution volume | 4.97 mL/cm3 |
| CCOc1c([C@H](C)n2nc(C)c3c(N)ncnc32)cc(Cl)c(F)c1[C@@H]1CNC(=O)C1 |  |  | patients, monotherapy | oral, 5 mg once daily, cycle 1 day 15 |  | Cmin | 127 nM |
| c1ccc(-c2n[nH]cc2-c2ccnc3ccccc23)nc1 |  | kinase binding, competitor, MIB/MS competition, item: YPK1 | Candida albicans cell lysate | 10 µM | relative to: DMSO | log2 fold change | 1.56 |
| N#CC[C@H](C1CCCC1)n1cc(-c2ncnc3[nH]ccc23)cn1 |  |  | Balb/c mice, oxazolone atopic dermatitis | day 20, unit not given | relative to: vehicle | ear thickness difference | -0.154 |
| N#Cc1ccc2c(-c3ccncc3)c(-c3ccc(F)cc3)nn2c1 |  | kinase binding, competitor, MIB/MS competition, item: CKA2 | Candida albicans cell lysate | 1 µM | relative to: DMSO | log2 fold change | 0.346 |
| CC[C@@H]1[C@H](F)C(=O)N[C@@H]1COc1nccc2cc(C(N)=O)c(OC)cc12 |  | ATP-site probe binding, ActivX profiling, item: MARK1, MARK2 | THP-1 cell lysate | 0.04 mM, Lys1 site |  | inhibition | 8.3% |
| CN(C)C(=O)Nc1cccc(-c2ccc(N(C)C)cc2)c1 |  | MRI | mouse, high-fat diet | dose not given |  | change in visceral fat | 0.246 g and -0.734 g and -0.00229 g and -0.499 g and 0.223 g |
| CCc1c(C)nc(-c2ccc(Cl)s2)nc1Nc1ccc(CC(=O)O)cc1 |  |  | C57BL/6J mouse, MCD diet MASH model, liver | intraperitoneal, 0.3 mg/kg daily, MCD diet 6 weeks, dosed final two weeks | relative to: untreated | Ki67-positive hepatocytes | decreased |
| CCCCOc1nc(N)c2c(n1)N(Cc1cccc(CN3CCCC3)c1)CC(=O)N2 |  | qPCR | human, blood | dose not given, 96 h, compound alone | relative to: predose | ISG15 mRNA level | increased |
| CN(C(=O)n1cnc(-c2ccc[n+]([O-])c2)c1)C1CCCCC1 |  | item: LEA | human, plasma | 20 mg single dose |  | AUC(0-t) | 342 ng·h/mL |
| CC(C)[C@H](C(=O)Nc1ccc(C(=O)NO)cc1)c1ccccc1 |  | volumetric MRI | human, left posterior fossa tumour | dose not given, day 373 | relative to: baseline | tumour volume change | 3.12% |
| Cn1cc(-c2ccc(-c3cncc(Cl)c3N3CCC4(CCNC4=O)CC3)cc2)cn1 | COLO 205 | microarray, item: TXNIP |  | concentration not given, 6 h | relative to: untreated cells | fold change in expression | 2.18 |
| O=C(/C=C/c1ccc(O)c(O)c1/C=C/c1ccc(O)c(O)c1)O[C@H](Cc1ccc(O)c(O)c1)C(=O)O |  |  | isolated myocardium | 1 µM |  | maximal dP/dt | 1180 mmHg/s |
| CC#Cc1cncc(-c2ccc3c(c2)[C@@]2(N=C(C)C(N)=N2)[C@]2(CC[C@H](OC)CC2)C3)c1 |  | item: Aβ42 | Dunkin-Hartley guinea pigs, plasma | oral, dose not given, down to LLOQ |  | reduction | > 90% |
| CSCCNc1nc(SCCC(F)(F)F)nc2c1ncn2[C@@H]1O[C@H](COP(=O)(O)OP(=O)(O)C(Cl)(Cl)P(=O)(O)O)[C@@H](O)[C@H]1O |  | platelet aggregation, light transmission aggregometry | human patients, platelet-rich plasma | dose not given, 1 h, with: TRAP 5 µM |  | inhibition | 25.3 ± 27.8% |
| O=C(O)CNS(=O)(=O)C(F)(F)C(F)(F)C(F)(F)C(F)(F)C(F)(F)C(F)(F)C(F)(F)C(F)(F)F |  | polarographic respiration | isolated rat liver mitochondria | above 20 µM |  | state 3 respiration | inhibited |
